# Results from different studies.
# Parts stem from different laboratories: compare values within a part only.

# Sample 1
# Target: Ras GTPase-activating protein-binding protein 1, full length (G3BP1, Homo sapiens, UniProt Q13283)
# Sequence of UniProt Q13283 (whole entry, looked up): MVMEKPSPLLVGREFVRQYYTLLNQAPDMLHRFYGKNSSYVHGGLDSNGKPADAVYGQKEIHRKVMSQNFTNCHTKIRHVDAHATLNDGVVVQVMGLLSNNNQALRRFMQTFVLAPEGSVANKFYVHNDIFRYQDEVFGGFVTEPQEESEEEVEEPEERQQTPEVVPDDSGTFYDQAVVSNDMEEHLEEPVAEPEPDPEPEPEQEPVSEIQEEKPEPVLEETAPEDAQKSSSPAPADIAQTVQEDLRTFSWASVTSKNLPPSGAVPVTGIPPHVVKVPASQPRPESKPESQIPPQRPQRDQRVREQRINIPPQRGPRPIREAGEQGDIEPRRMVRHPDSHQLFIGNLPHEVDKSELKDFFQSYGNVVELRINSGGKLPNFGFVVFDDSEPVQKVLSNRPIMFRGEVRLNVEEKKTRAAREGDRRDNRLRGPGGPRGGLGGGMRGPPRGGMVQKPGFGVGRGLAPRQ
# Method: RNA Bind-n-Seq
# Form: RNA
# Medium: in vitro
# Tested at: 200 nM
# Notes: whole 134-nt RNA, ends assumed
# Together with: 150 mM LiCl
# Relative to: input library
# Direction: higher = stronger binding
# Each molecule: 7-deaza-guanosine replaces G
# All sequences stand within: GGGAGUUCUACAGUCCGACGAUC … UGGAAUUCUCGGGUGUCAAGG
Oligonucleotide,log2 enrichment
UCCUGUGCUACACAUCGUAUGUACCGAAUCGGGGAAAAAAAGGGGAAAAAGGGGUGGGGAAAGUAUUAUGUUACGCCGUUCGGAUCUGCA,-0.31
GUCCUGUGCUACACAUCGUAUGUACCGAAUCGGGUUUUUUUGGGUUUGGGAAAAAGGGAAAGUAUUAUGUUACGCCGUUCGGAUCUGCAC,-1.16
AGUCCUGUGCUACACAUCGUAUGUACCGAAUCGGGAAAGGGAAAGGGAAAAAAAGGGAAAGUAUUAUGUUACGCCGUUCGGAUCUGCACU,-0.218
CCUCAAGUCCUGUGCUACACAUCGUAUGUACCGAAUCGGCGGGGCGGGGCGGAAAGUAUUAUGUUACGCCGUUCGGAUCUGCACUUCCAG,-0.107
GGUGAUGGUCAACAAGCCUCAACUGCCUCUGCUACAACUGCCAAGUUCCCCGCGUCCCACCCUCCUCUAGGUGCUCCAAGGGACCACCGG,-0.446
ACCAUGCAGGUGGGCAUCUUUGGGAAGUGGGGCAAGGGGGGGAAAAGGAGGGGGGUAACACUUUGGGAACAGGUGGUCCCAGGUCGUUUC,0.268
CUGUGCUACACAUCGUAUGUACCGAAUCGGGGUUUUUGGGGUUUUUGGGGAAAAAAAGGGGAAAGUAUUAUGUUACGCCGUUCGGAUCUG,0.673
UGAUGAUAGUAGCAGAGAAGAUGAACAUACACAUACUAACAGUGUCACGAACUCCAGUAGUAUUGUGGACCUGCCCGUUCACCAACUCUC,-0.0239
GUCCUGUGCUACACAUCGUAUGUACCGAAUCGGCCCCCCGGCCCCCCGGGCCCCCCGGGAAAGUAUUAUGUUACGCCGUUCGGAUCUGCA,-0.612
UCCUGUGCUACACAUCGUAUGUACCGAAUCGGGGAAAAAAAGGGGAGGGGUUUUUGGGGAAAGUAUUAUGUUACGCCGUUCGGAUCUGCA,0.758
AGUCCUGUGCUACACAUCGUAUGUACCGAAUCAAAUUUAAACCCCCAAAUUUUUAAAAAAGUAUUAUGUUACGCCGUUCGGAUCUGCACU,0.446

# Sample 2
# Target: Interferon regulatory factor 5, full length, phosphomimetic (IRF5, Homo sapiens, UniProt Q13568-2, residues 1-514, S451D/S453D/S456D/S462D)
# Method: protein-binding microarray
# Form: double-stranded DNA, one strand shown
# Medium: in vitro
# Tested at: 940 nM top
# Notes: 60-bp whole probe
# Together with: salmon DNA 0.4 mg/ml
# Relative to: random background probes
# Direction: higher = stronger binding
# All sequences stand within: GCCTAGCAC … GTCTTGATTCGCTTGACGCTGCTG
Oligonucleotide,fitted relative affinity
TCATATTTTTTTCCAGAACTGTGCTAG,1.25 z-score
GACAATCTCAGTATCGAGACGTGCTAG,2.16 z-score
TTGGGTTTCCTTCTCCTTTAGTGCTAG,1.54 z-score
GACGCTTTCGACTTTCGGGACGTGCTA,2.84 z-score
GAAGTTCTTTTTTTCAAGAAGTGCTAG,0.514 z-score
CCTAGTTTCATTCCTGATCTGTGCTAG,6.29 z-score
CACGAACTGAGTTTCGAGACGTGCTAG,3.19 z-score
GACGGTCACGGACTGGGGACGTGCTAG,-0.899 z-score
GCCGGACTGGACTATCGGGACGTGCTA,-0.35 z-score
TTAGATATAAGTCTCGATTAGTGCTAG,1.83 z-score
GACGGGTTCGGTCTCGGGACGTGCTAG,0.716 z-score
TACGGACTGGACTATCGGGACGTGCTA,-0.446 z-score
TCAAGTGTGCCATATTTAACTGTGCTA,0.137 z-score
GGCTTCCTCTTTCTCTGCTAGTGCTAG,0.976 z-score
TTTGGTTTCGGTTTCGGTTAGTGCTAG,19.9 z-score
GACGGACGGGGTCTCGGGACGTGCTAG,0.0629 z-score
TCAGCTTTCTTTACCACACTGTGCTAG,1.29 z-score
GACGGGATCGACTATCGGGACGTGCTA,-0.176 z-score
TTGAACTTCGGCCTCTAGGTGTGCTAG,-0.304 z-score

# Sample 3
# Target: RING finger protein unkempt homolog, zinc fingers 1-6, GST-SBP tag (UNK, Homo sapiens, UniProt Q9C0B0, residues 30-357)
# Method: RNA Bind-n-Seq
# Form: RNA
# Medium: in vitro
# Tested at: not given
# Notes: RNA with constant flanks, human and mouse sites, ends assumed
# Relative to: input RNA pool
# Direction: higher = stronger binding
# All sequences stand within: GGGAGUUCUACAGUCCGACGAUC … CAACAGAGGAUUGAGCAUCA
# Residues (chain): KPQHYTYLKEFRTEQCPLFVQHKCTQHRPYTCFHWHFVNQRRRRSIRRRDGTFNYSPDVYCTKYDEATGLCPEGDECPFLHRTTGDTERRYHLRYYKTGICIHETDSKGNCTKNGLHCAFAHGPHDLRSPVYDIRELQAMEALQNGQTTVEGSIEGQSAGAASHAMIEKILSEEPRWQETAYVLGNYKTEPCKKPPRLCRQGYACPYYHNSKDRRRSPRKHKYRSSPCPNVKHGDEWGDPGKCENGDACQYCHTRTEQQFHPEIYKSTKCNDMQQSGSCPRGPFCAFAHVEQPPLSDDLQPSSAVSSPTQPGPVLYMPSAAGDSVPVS
Oligonucleotide,bound/input enrichment
AAGCAGCAAACAGAAAGGGUUACAAAAGAGAUGAAUGAAUUUAUUCACAGAGAGCAAAAUAGUUUAUCACUUCUAGAAGCAAGUGAAGCCGACCGUGAUGCGGUCAAUGACAAGAAAAGA,0.854 ratio
AAAAUUGGUAUCGUUGGAUUGCCAAAUGUUGGGAAGUCUACCUUCUUCAAUGUAUUAACCAAUAGUCAGGCUUCAGCAGAAAACUUCCCAUUCUGCACUAUUGAUCCUAAUGAGAGCAGA,0.217 ratio
GAAGAUAAGCUGGAAUGUUCUGAAGAACUGGGUGAUCUUGUGAAAUCUGUGGACCCUACAUUGGCACUUAGUGUGUACCUAAGGGCUAACGUCCCAAAUAAAGUCAUUCAGUGCUUUGCA,0.111 ratio
GAAGUUCCCCAUUGUCACUGAGAACCACCAAAUUUGACUUUCACAUUUGGUCUCAGAAUUUAGGUUCCUGCCCUGUUGUUUUUCUUUCUUUUUCUUUUUUUUUUUUCUCCCCUCCCCUUU,4.19 ratio
ACUGUCCAGGAGGUUCACCCAGGAGAACCUCCGUUCGACUUGGAGCUGUUCUACGUUAAGUAUAGAAAUUUUUCCUACUUACAUUGUAAAUGGGCCACAAUGGAAGAGCUCGAAAAGGAU,0.342 ratio
AAAGCCCGAGACAGAAAACUUCUUGCUAUCUACCUCCACCAUGAUGAAAGUGUACUAACCAACGUGUUCUGCUCACAAAUGCUUUGUGCUGAAUCCAUUGUUUCCUAUCUGAGUCAAAAU,0.249 ratio
CCAUAAGUACAGUUGAUCAAAGUCAUAGUAGGUAAAUGCUUUAUGGGACAGCUGACACCUUUUAGACCCUACCAGGUAUUGCUAGCAUGUGAGCUGCAGUUGUGGGGUCUGAGAUAUUUC,0.174 ratio
GGUCGGCUCUACCAAGUAGAAUAUGCUUUUAAGGCUAUUAACCAGGGUGGCCUUACAUCAGUAGCUGUCAGAGGGAAAGACUGUGCAGUAAUUGUCACACAGAAGAAAGUACCUGACAAA,0.532 ratio
CUGGGGGCCGGCGCCGUGGCCUACGGUGUGCGCGAAUCUGUGUUCACCGUGGAAGGCGGGCACAGAGCCAUCUUCUUCAAUCGGAUCGGUGGAGUGCAGCAGGACACUAUCCUGGCCGAG,0.0854 ratio
CCUGCGCCGCCUCCUCCCACCCUGAGCAGAGCCGCCGAGGAUGAUAAACACCCAGGACAGUAGUAUUUUGCCUUUGAGUAACUGUCCCCAGCUCCAGUGCUGCAGGCACAUUGUUCCAGG,0.312 ratio
GCUACCUCUGUUGCUGCCCGAGGUCUAGAUGUGAAACAUCUGAUUCUUGUAGUAAAUUAUAGCUGCCCCAACCAUUAUGAGGAUUAUGUACACAGAGCAGGGCGGACUGGAAGAGCAGGA,0.881 ratio

# Sample 4
# Target: Histone acetyltransferase KAT6A, winged helix 2, GST fusion (KAT6A, Homo sapiens, UniProt Q92794, residues 85-181)
# Method: protein binding microarray
# Form: double-stranded DNA, one strand shown
# Medium: in vitro
# Tested at: not given
# Notes: 8-mer, flanks averaged, mean of 2 arrays, mostly near background
# Relative to: not given
# Direction: higher = stronger binding
# Target sequence (chain): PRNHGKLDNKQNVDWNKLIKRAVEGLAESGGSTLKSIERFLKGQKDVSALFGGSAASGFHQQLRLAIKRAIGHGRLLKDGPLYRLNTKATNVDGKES
Oligonucleotide,E-score
CTAGCCGA,0.0934
CGACGCGC,0.281
AATTGGCT,0.0442
AACTGACT,-0.153
CGATGGGC,0.137
CCGTAATA,0.0532
CACCAGAC,-0.0212
GCTAAGAC,0.127
GGGCCTAA,-0.0181
AAGGGCTC,-0.088
GAGTTAGA,0.0569
CATTCTGC,-0.0497
GAGCTAGA,-0.113
ACCGGGCA,0.0688
TACGCAGA,0.125
CTAGCAGA,0.0508

# Excerpt of the above (sample 4):
Oligonucleotide,E-score
GCTAAGAC,0.127
GGGCCTAA,-0.0181
GAGTTAGA,0.0569
CCGTAATA,0.0532
AACTGACT,-0.153
CGACGCGC,0.281
